# Measured values pooled from the literature.
# Protocols differ between the studies behind these lines. ± marks the error that the study gave.
# Observed: binding
# ACTA1: Actin, alpha skeletal muscle (ACTA1, Oryctolagus cuniculus, UniProt P68135)
# Alpha-mannosidase: Alpha-mannosidase (Canavalia ensiformis, UniProt C0HJB3)
# Sequence of UniProt C0HJB3 (whole entry, looked up): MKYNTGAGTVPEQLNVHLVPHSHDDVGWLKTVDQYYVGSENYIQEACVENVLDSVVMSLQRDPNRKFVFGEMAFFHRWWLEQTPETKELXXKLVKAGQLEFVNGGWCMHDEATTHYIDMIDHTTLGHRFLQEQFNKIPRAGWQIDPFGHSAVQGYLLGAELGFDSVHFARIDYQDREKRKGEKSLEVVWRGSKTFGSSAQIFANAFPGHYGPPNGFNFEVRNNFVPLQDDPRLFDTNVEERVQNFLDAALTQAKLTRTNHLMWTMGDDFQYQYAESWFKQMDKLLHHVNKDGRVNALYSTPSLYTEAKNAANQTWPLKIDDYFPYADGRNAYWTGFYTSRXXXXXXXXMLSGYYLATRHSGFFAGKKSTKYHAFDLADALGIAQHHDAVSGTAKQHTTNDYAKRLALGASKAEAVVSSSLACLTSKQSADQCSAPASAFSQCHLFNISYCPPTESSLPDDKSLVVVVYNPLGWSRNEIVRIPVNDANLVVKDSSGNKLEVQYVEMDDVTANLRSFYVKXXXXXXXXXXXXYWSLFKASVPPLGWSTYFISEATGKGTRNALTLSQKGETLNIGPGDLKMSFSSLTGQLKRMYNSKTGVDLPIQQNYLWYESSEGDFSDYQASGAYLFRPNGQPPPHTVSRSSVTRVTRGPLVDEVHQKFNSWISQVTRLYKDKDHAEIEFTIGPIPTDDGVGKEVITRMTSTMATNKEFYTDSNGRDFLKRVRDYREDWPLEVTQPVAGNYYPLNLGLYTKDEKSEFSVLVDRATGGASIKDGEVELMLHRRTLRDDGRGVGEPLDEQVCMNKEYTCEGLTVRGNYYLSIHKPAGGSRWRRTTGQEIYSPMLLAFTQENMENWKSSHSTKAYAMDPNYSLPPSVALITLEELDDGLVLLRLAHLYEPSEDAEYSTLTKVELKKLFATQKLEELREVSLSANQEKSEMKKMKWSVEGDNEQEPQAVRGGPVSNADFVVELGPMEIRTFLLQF
# PTH1R: Parathyroid hormone/parathyroid hormone-related peptide receptor (PTH1R, Homo sapiens, UniProt Q03431)
# Sequence of UniProt Q03431 (whole entry, looked up): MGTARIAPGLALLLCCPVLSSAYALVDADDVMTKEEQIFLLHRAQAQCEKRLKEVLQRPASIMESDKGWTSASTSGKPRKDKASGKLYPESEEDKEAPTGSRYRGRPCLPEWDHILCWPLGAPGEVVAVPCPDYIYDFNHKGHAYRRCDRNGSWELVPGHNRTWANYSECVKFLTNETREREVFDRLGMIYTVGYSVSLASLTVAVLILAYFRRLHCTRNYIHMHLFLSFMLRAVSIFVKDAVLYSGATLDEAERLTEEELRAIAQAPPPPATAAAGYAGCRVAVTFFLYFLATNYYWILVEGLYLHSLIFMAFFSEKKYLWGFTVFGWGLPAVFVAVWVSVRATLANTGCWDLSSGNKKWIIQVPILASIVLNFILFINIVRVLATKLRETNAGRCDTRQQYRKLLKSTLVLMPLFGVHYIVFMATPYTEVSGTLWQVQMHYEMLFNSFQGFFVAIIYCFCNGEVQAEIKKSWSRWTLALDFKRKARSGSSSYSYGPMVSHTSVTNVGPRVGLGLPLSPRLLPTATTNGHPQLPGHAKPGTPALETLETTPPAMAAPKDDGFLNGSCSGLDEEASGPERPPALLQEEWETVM
# Sequence of UniProt P51686 (whole entry, looked up): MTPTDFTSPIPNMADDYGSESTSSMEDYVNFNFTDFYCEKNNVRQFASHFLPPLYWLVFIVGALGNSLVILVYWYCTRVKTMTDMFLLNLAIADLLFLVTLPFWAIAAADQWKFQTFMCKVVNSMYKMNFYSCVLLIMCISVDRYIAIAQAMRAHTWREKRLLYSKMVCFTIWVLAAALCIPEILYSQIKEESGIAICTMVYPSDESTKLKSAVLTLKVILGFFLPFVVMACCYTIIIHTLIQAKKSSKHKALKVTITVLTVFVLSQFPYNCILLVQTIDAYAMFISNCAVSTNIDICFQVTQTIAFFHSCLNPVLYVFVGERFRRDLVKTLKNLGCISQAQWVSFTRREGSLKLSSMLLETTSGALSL
SMILES,target,assay,test system,setting,koff [s⁻¹]
CC(C)[C@H](NC(=O)[C@H](CCCCN)NC(=O)[C@H](C)NC(=O)[C@H](CCCCN)NC(=O)CNC(=O)[C@H](CCCNC(=N)N)NC(=O)[C@@H](NC(=O)[C@H](CCCCN)NC(=O)[C@@H](N)CO)[C@@H](C)O)C(=O)N[C@H](C(=O)NCC(=O)N[C@@H](CS)C(=O)N[C@@H](Cc1c[nH]c2ccccc12)C(=O)N[C@@H](CCCCN)C(=O)O)[C@@H](C)O,ACTA1,SPR,,pH 7,0.0172
CC1=CC(=O)CC(C)(C)C1(O)C=CC(C)O (stereo not drawn),Alpha-mannosidase,surface plasmon resonance,,25 °C,0.00441
CN(C)c1ccc2c(-c3ccc(C(=O)NCCCn4cc(COc5cc(C(=O)c6cc(Cl)ccc6NS(=O)(=O)c6ccc(C(C)(C)C)cc6)cc[n+]5[O-])nn4)cc3C(=O)[O-])c3ccc(=[N+](C)C)cc-3oc2c1,"CCR9 (Homo sapiens, UniProt P51686)",BRET,,cell membranes,0.000187
O=c1c2ccccc2nc2n1CCC2O (stereo not drawn),Alpha-mannosidase,surface plasmon resonance,,25 °C,0.00194
Cc1ccc2c(c1Br)C(O)(CC(=O)c1ccc3c(c1)OCO3)C(=O)N2 (stereo not drawn),"Uncharacterized protein (Trypanosoma brucei brucei, UniProt Q386Q8)",surface plasmon resonance,Trypanosoma brucei,added: GlcNAc-1-P 100 µM,0.13 ± 0.04
CC[C@H](C)[C@H](NC(=O)[C@H](CCC(=O)O)NC(=O)[C@H](CO)NC(=O)[C@@H](NC(=O)[C@@H](N)CO)C(C)C)C(=O)N[C@@H](CCC(N)=O)C(=O)N[C@@H](CC(C)C)C(=O)N[C@@H](CCSC)C(=O)N[C@@H](Cc1c[nH]cn1)C(=O)N[C@@H](CC(N)=O)C(=O)N[C@@H](CC(C)C)C(=O)NCC(=O)N[C@@H](CCCCN)C(=O)N[C@@H](Cc1c[nH]cn1)C(=O)N[C@@H](CC(C)C)C(=O)N[C@@H](CC(N)=O)C(=O)N[C@@H](CO)C(=O)N[C@@H](CCSC)C(=O)N[C@@H](CCC(=O)O)C(=O)N[C@@H](CCCNC(=N)N)C(=O)N[C@H](C(=O)N[C@@H](CCC(=O)O)C(=O)N[C@@H](Cc1c[nH]c2ccccc12)C(=O)N[C@@H](CC(C)C)C(=O)N[C@@H](CCCNC(=N)N)C(=O)N[C@@H](CCCCN)C(=O)N[C@@H](CCCCN)C(=O)N[C@@H](CC(C)C)C(=O)N[C@@H](CCC(N)=O)C(=O)N[C@@H](CC(=O)O)C(=O)N[C@H](C(=O)N[C@@H](Cc1c[nH]cn1)C(=O)N[C@@H](CCCCNC(=O)c1ccc2c(c1)C1(OC2=O)c2ccc(N(C)C)cc2Oc2cc(N(C)C)ccc21)C(=O)N[C@@H](Cc1ccccc1)C(N)=O)C(C)C)C(C)C,PTH1R,NanoBRET,HEK293,,0.0043 ± 0.002
CC(=O)C=C=C1C(C)(C)C[C@H](O)C[C@@]1(C)O,Alpha-mannosidase,surface plasmon resonance,,25 °C,0.00437
CC(C)[C@H](NC(=O)[C@H](CCCCN)NC(=O)[C@H](C)NC(=O)[C@H](CCCCN)NC(=O)CNC(=O)[C@H](CS)NC(=O)[C@@H](NC(=O)[C@H](CCCCN)NC(=O)[C@@H](N)CO)[C@@H](C)O)C(=O)N[C@H](C(=O)NCC(=O)N[C@@H](CCCNC(=N)N)C(=O)N[C@@H](Cc1c[nH]c2ccccc12)C(=O)N[C@@H](CCCCN)C(=O)O)[C@@H](C)O,ACTA1,SPR,,pH 7,0.0169
CC[C@H](C)[C@H](NC(=O)[C@H](CCC(=O)O)NC(=O)[C@H](CO)NC(=O)[C@@H](NC(=O)[C@@H](N)CO)C(C)C)C(=O)N[C@@H](CCC(N)=O)C(=O)N[C@@H](CC(C)C)C(=O)N[C@@H](CCSC)C(=O)N[C@@H](Cc1c[nH]cn1)C(=O)N[C@@H](CC(N)=O)C(=O)N[C@@H](CC(C)C)C(=O)NCC(=O)N[C@@H](CCCCN)C(=O)N[C@@H](Cc1c[nH]cn1)C(=O)N[C@@H](CC(C)C)C(=O)N[C@@H](CC(N)=O)C(=O)N[C@@H](CO)C(=O)N[C@@H](CCSC)C(=O)N[C@@H](CCC(=O)O)C(=O)N[C@@H](CCCNC(=N)N)C(=O)N[C@H](C(=O)N[C@@H](CCC(=O)O)C(=O)N[C@@H](Cc1c[nH]c2ccccc12)C(=O)N[C@@H](CC(C)C)C(=O)N[C@@H](CCCNC(=N)N)C(=O)N[C@@H](CCCCN)C(=O)N[C@@H](CCCCN)C(=O)N[C@@H](CC(C)C)C(=O)N[C@@H](CCC(N)=O)C(=O)N[C@@H](CC(=O)O)C(=O)N[C@H](C(=O)N[C@@H](Cc1c[nH]cn1)C(=O)N[C@@H](CC(N)=O)C(=O)N[C@@H](Cc1ccccc1)C(=O)N[C@@H](CCCCNC(=O)c1ccc2c(c1)C1(OC2=O)c2ccc(N(C)C)cc2Oc2cc(N(C)C)ccc21)C(N)=O)C(C)C)C(C)C,PTH1R,NanoBRET,,"pH 6.5, MES buffer",0.0049 ± 0.001

# Some of these lines once more:
SMILES,target,assay,test system,setting,koff [s⁻¹]
O=c1c2ccccc2nc2n1CCC2O (stereo not drawn),Alpha-mannosidase,surface plasmon resonance,,25 °C,0.00194
